Experimental data from different studies.
Each line is one published result; not all experiments were run side by side.
Medium: Caco-2

| Structure (SMILES) | conditions | measurement | value |
| --- | --- | --- | --- |
| COc1ccc2c(c1OCc1ccccc1)C[C@@H](C(=O)O)N(c1nc3ccc(C#N)cc3o1)C2 | 10 µM, 90 min, pH 7.4 | Papp B→A | 13.9 ×10⁻⁶ cm/s |
| NC(=O)c1c(F)ccc(OCc2nc3cc(Cl)cnc3s2)c1F | – | Papp A→B | 48.7 ×10⁻⁶ cm/s |
| Nc1ccc(-c2ccc3ncc4c(=O)[nH]c(=O)n(-c5cccc(C(F)(F)F)c5)c4c3n2)cn1 | – | Papp A→B | ≤ 2.5 ×10⁻⁶ cm/s |
| COC(=O)c1ccc2c(c1)NC(=O)/C2=C(\Nc1ccc2c(c1)CCN2C(=O)CN1CCOCC1)c1ccccc1 | 2 µM, 2 h | Papp B→A | 1.14 ×10⁻⁶ cm/s |
| Cc1cc(N2CCC(C#N)(C3(C)CC3)C2=O)cc(C(=O)NCc2cc(F)cc(-c3cnn(C)c3)c2)n1 (racemic) | 20 µM, 2 h, pH 7.4 | Papp A→B | 22 ×10⁻⁶ cm/s |
| CO[C@@H](C[C@H]1C(C)=CC[C@@H]2[C@]3(C)C[C@H](O[C@@H]4O[C@@H](C)[C@H](O)[C@@H](O)[C@H]4O)[C@@H](O)C(C)(C)[C@H]3CC[C@]21C)[C@H](N)C(=O)O | 5 µM, 1 h | Papp B→A | 0.07 ×10⁻⁶ cm/s |
| CCN(CC)CCN=S(=O)(c1ccccc1)N1CCCCC1 (stereo not shown) | – | Papp A→B | 16.4 ×10⁻⁶ cm/s |
| CCOC(=O)c1cc2cc(-c3cc(C(=O)NCc4ccc(C(=O)O)cc4)nn3C)ccc2[nH]1 | 50 mM, 2.5 h, pH 7.4 | Papp A→B | 0.6 ×10⁻⁶ cm/s |
| Cc1cnc(Nc2cc(C)c(C)c(C)c2)nc1Nc1ccc2oc(=O)[nH]c2c1 | pH 6.5 | Papp | 11.2 ×10⁻⁶ cm/s |
| Cc1cc(O)cc(O)c1C(=O)c1c2c3c(c(O)cc(C)c3oc1=O)C(=O)c1c(O)cc(O)cc1-2 | 200 µM, 3 h, pH 7.4 | Papp A→B | 1.17 ×10⁻⁶ cm/s |
| O=S(=O)(c1ccccc1)N1CCCCC1 | – | Papp A→B | 39.3 ×10⁻⁶ cm/s |
| O=C(C1CCN(c2nnnn2-c2ccccc2)CC1)N1CCCc2ccccc21 | 5 µM, 2 h | Papp A→B | 17.5 ×10⁻⁶ cm/s |
| CC1(C)CCC2(CO)C(=C3C=CC4[C@@]5(C)CCC(O)[C@@](C)(CO)C5CC[C@@]4(C)[C@]3(C)C[C@H]2O)C1 (stereo partly shown) | 10 µM, 3 h | Papp B→A | 0.063 ×10⁻⁶ cm/s |

Repeated from above:
| Structure (SMILES) | conditions | measurement | value |
| --- | --- | --- | --- |
| O=S(=O)(c1ccccc1)N1CCCCC1 | – | Papp A→B | 39.3 ×10⁻⁶ cm/s |
